# Assay results pooled from the literature.
# Parts stem from different laboratories: compare values within a part only.

# Sample 1
# Target: Histone acetyltransferase KAT6A, both winged helices, GST fusion (KAT6A, Homo sapiens, UniProt Q92794, residues 1-181)
# Technique: protein binding microarray
# Molecule type: double-stranded DNA, one strand shown
# Matrix: in vitro
# Concentration: not given
# Notes: 8-mer, flanks averaged, mean of 2 arrays, mostly near background
# Reference: not given
# Direction: higher = stronger binding
# Target sequence (chain): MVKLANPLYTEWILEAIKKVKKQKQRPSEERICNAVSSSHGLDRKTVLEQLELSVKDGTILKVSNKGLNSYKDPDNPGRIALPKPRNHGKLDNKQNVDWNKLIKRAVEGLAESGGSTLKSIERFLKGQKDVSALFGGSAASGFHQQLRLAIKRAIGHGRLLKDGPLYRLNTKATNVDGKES
Strand,E-score
ATCGCGGG,0.173
ATCTCCCA,-0.0934
CGACACGC,0.141
AAAAACTC,-0.158

# Sample 2
# Target: RNA binding protein fox-1 homolog 2, RRM domain, GST-SBP tag (RBFOX2, Homo sapiens, UniProt O43251-10, residues 100-194)
# Technique: RNA Bind-n-Seq
# Molecule type: RNA
# Matrix: in vitro
# Concentration: 365 nM
# Notes: natural RNA segment, single round, ends assumed
# Reference: no-protein control
# Direction: higher = stronger binding
# Residues (chain): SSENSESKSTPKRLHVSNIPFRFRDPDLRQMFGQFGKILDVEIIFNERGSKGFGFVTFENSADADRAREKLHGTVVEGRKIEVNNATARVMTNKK
Strand,RBNS enrichment (R)
GGGAGUUCUACAGUCCGACGAUCGAUGUAUGAACAAAAAAAAAUCAAUAAAAGAAUAUACUCUUUUCAUGGACUGUAGUAGUAUGUGAAUGUUACAUUUAGUUUGAACAGUUCUGAAGUAUAAGGAGAAAUGUUGGAAUUCUCGGGUGCCAA,5.25
GGGAGUUCUACAGUCCGACGAUCUUCUACUGUGUCUAGGAUUGUUGGGAUUGUACAUAUGGUACUCUUUCAUAAAUGAUAAAUGAUUCUGAAUGUUAGUGUUUUAUGUUCAUAUAGGAAAUAUUUUCAUUGAGUGGAAUUCUCGGGUGCCAA,0.565
GGGAGUUCUACAGUCCGACGAUCUGGCCACAGUGUUGGCUGGACUCUGACUCAGUGGCCCAGCCUGCAGCUGGAAGGACACAGGUUGCCGGAGUCCCUGACACAGCUCCAGCAUAUCUGUGACCAUCUGCUCCUGGAAUUCUCGGGUGCCAA,0.249
GGGAGUUCUACAGUCCGACGAUCAAUCUAUCUAUAGACUGUAGUAAGAUGCAAUGUGGCUCUUUUCUUUUAGGUUGUGUGCAGUUGAUAUUUAACAUUGAUUUAUUUUUGAUCAUUUAAGUAAUAGUUAGUAAUGGAAUUCUCGGGUGCCAA,1.74

# Sample 3
# Target: Prothrombin, mature alpha-thrombin (F2, Homo sapiens, UniProt P00734)
# Technique: aptamer microarray, sandwich
# Molecule type: DNA with 2'F-ANA
# Matrix: in vitro
# Concentration: 200 nM
# Notes: whole 15-mer aptamer, many near background
# Together with: Cy3 exosite-II aptamer, 400 nM
# Direction: higher = stronger binding
Strand,mean fluorescence intensity
GGTTGGTGTGGTTGG (2'F-ANA at 2 5 10 12 13),48.4 a.u.
GGTTGGTGTGGTTGG (2'F-ANA at 1 3 5 6 8 10 11 15),51.7 a.u.
GGTTGGTGTGGTTGG (2'F-ANA at 1 2 6 8 9 10 11 12 13 14 15),84.7 a.u.
GGTTGGTGTGGTTGG (2'F-ANA at 1 3 5 9 10 11 13),49.2 a.u.

# Other studies, line by line
Molecule,target,assay,system,conditions,how to read,quantity,result
"PhoQ, residues 284 288 289 292 302 303 AGCYAI","PhoP, residues 12 14 15 18 19 DLLYY (Escherichia coli, UniProt P23836)","Sort-seq, measured: YFP reporter",E. coli,"PhoQ-PhoP variant library, together with: 10 µM Mg2+","reference: high Mg2+ state, higher = stronger signaling",fold induction,3.46

# Excerpt of the above (sample 1):
Strand,E-score
ATCGCGGG,0.173
